Results gathered from unrelated publications.
Each numbered part is a random draw from the data of one study; scales do not carry over between parts. “And” joins repeats or separate records; there may be more than shown.
UniProt Q8TF76, sequence (whole entry, looked up): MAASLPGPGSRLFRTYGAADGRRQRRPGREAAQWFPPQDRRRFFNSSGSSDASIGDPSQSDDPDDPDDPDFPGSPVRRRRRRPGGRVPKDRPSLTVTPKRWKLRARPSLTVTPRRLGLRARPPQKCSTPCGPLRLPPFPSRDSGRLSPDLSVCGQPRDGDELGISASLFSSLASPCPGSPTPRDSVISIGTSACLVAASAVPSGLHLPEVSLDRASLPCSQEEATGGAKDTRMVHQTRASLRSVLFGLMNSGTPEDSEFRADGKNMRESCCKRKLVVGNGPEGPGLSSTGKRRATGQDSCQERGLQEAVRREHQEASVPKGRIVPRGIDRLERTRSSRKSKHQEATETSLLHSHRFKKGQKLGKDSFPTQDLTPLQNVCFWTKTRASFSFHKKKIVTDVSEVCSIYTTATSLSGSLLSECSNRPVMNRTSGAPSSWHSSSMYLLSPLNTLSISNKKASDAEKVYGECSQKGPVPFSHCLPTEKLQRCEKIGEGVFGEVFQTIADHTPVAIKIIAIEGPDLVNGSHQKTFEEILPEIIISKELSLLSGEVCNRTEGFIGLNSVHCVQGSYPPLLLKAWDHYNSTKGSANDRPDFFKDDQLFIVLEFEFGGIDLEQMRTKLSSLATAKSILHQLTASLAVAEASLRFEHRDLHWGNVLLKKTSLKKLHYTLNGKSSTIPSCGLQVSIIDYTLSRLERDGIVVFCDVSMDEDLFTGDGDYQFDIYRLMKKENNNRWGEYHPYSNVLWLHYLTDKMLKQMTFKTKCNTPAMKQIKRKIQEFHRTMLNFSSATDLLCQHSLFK
UniProt O43187, sequence (whole entry, looked up): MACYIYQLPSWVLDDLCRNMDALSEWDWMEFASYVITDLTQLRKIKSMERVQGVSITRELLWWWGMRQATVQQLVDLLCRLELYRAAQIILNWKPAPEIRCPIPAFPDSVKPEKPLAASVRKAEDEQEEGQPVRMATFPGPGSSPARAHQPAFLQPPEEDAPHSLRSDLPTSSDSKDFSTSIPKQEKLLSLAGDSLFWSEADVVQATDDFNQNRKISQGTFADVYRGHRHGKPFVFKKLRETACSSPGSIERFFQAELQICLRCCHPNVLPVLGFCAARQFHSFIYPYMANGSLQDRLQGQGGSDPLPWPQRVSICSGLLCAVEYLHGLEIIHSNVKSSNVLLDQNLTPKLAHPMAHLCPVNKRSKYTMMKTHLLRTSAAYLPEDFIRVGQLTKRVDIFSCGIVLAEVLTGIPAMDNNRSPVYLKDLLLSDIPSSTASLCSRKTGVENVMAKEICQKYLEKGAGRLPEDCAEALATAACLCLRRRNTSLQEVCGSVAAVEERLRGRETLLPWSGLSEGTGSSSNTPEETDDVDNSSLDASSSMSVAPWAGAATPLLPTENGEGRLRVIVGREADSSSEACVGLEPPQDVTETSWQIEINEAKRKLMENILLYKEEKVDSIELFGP
UniProt P10721, sequence (whole entry, unmodified, looked up): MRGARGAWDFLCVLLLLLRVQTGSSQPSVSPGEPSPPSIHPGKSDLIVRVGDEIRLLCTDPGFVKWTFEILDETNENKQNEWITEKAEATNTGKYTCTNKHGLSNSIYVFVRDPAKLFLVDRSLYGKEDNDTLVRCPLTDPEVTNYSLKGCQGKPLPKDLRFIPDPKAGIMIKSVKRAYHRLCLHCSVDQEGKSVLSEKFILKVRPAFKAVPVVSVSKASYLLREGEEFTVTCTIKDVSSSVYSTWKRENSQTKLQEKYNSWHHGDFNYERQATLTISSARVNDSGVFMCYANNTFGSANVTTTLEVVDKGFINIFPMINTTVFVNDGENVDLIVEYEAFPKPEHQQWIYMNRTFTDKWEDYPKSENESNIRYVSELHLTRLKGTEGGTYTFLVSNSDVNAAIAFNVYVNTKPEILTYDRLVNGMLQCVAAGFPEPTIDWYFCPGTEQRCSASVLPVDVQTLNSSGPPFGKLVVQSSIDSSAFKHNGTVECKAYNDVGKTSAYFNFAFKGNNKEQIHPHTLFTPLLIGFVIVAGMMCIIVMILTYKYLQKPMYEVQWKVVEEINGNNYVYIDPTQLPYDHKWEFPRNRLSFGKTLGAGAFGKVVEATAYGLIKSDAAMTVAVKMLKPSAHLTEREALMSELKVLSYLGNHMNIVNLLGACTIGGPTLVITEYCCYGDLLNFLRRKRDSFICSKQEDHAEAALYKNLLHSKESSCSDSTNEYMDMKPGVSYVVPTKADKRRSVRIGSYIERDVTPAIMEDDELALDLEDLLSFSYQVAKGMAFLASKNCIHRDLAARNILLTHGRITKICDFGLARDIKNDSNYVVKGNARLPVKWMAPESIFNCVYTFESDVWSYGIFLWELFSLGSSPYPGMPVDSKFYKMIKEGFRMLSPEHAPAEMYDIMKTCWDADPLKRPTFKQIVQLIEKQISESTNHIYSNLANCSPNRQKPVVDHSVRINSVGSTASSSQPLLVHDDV
UniProt Q9H1R3, sequence (whole entry, looked up): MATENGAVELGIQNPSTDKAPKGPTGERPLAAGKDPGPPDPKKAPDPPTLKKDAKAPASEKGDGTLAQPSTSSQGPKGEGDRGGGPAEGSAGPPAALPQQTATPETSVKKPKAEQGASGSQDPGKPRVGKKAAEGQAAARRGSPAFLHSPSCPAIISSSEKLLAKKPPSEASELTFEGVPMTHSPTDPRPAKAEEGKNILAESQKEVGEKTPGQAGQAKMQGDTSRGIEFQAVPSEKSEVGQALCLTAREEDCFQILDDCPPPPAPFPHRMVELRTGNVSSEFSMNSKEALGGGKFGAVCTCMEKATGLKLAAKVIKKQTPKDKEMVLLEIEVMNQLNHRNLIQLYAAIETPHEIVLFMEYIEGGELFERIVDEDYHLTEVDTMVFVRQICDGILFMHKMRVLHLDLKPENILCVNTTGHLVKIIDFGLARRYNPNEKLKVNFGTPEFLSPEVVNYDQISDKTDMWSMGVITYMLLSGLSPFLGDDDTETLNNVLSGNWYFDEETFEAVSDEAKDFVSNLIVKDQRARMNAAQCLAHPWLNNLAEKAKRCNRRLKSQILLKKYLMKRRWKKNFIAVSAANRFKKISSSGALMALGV

Series 1 — action: inhibitor; concentration: 5 µM
SMILES: COc1cc(/C=C(\C#N)C(=O)c2ccc(O)c(O)c2)cc(I)c1O
The “log2 fold change” was -0.03 (MYLK2 (Homo sapiens, UniProt Q9H1R3); cell-based kinome screen; human cells; reference: untreated control).
PRKACB (Homo sapiens, UniProt P22694); cell-based kinome screen; human cells; reference: untreated control — “log2 fold change”: 0.651.
The “log2 fold change” was 0.63 (IRAK2 (Homo sapiens, UniProt O43187); cell-based kinome screen; human cells; reference: vehicle).
For ABL1 G2A human; kinase-CDC37 interaction; human cells; reference: vehicle: “log2 fold change” read 0.136.
For FLT3 (Homo sapiens, UniProt P36888); cell-based kinome screen; human cells; reference: vehicle: “log2 fold change” read 0.789.
For ERBB4 (Homo sapiens, UniProt Q15303, E872K); kinase–CDC37 interaction; ERBB4 E872K oncogenic mutant; reference: vehicle control: “log2 fold change” read -0.127.
It gave -0.075 for “log2 fold change” (kinase–CDC37 interaction; kinase–CDC37 binding; human cells; oncogenic MSN-ALK fusion; reference: vehicle).
For NEK8 (Homo sapiens, UniProt Q86SG6); kinase–CDC37 interaction; kinome plate 1@G12; reference: vehicle: “log2 fold change” read -0.253.
It gave 0.145 for “log2 fold change” (Cyclin-dependent kinase 14, with CDC37 (CDK14, Homo sapiens, UniProt O94921); human cells; reference: vehicle).

Series 2 — effect on: enzyme activity; action: inhibitor; concentration: 0.5 µM; reference: control
Target: Ephrin type-B receptor 4 (EPHB4, Homo sapiens, UniProt P54760)
UniProt P54760, sequence (whole entry, looked up): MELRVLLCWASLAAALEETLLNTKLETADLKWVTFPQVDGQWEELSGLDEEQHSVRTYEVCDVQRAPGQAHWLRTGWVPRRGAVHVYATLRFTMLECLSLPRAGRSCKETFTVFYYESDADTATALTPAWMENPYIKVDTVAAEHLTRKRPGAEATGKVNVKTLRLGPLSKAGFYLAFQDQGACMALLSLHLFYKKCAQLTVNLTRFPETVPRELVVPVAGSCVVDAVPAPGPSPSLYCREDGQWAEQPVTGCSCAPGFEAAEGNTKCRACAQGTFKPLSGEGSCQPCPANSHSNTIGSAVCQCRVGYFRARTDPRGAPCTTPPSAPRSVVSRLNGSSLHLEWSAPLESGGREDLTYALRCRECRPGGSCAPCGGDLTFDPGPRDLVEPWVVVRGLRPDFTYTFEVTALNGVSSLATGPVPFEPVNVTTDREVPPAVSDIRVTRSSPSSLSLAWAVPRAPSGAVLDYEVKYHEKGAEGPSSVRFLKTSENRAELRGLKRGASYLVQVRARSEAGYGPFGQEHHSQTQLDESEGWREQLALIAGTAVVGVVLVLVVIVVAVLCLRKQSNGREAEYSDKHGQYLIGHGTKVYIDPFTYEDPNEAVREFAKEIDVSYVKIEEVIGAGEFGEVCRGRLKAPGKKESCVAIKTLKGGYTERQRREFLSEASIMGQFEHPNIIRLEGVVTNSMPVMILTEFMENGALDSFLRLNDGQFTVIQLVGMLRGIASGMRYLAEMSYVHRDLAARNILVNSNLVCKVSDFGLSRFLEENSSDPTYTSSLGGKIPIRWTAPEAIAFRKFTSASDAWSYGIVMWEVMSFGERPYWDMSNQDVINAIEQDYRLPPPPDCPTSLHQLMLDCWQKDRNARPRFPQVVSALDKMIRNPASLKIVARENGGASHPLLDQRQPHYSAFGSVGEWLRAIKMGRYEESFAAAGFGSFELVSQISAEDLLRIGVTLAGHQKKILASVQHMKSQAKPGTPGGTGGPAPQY
Nc1ncnc2n[nH]c(Nc3ccc(F)cc3)c12 has a remaining activity of 87.8%.
C#Cc1cccc(Nc2ncnc3cc(OCCOC)c(OCCOC)cc23)c1 gave a remaining activity of 79.2%.
The remaining activity of N#CC(C#N)=C(N)/C(C#N)=C/c1ccc(O)cc1 is reported as 88.1%.
With O=C1NC(=O)C(c2cn(CCCn3ccnc3)c3ccccc23)=C1Nc1ccccc1 the remaining activity was 87.9%.
COc1ccc(OC)c2c(=S)c3ccccc3[nH]c12 has a remaining activity of 91.1%.
CCOC(=O)c1c(C)[nH]c(/C=C2\C(=O)Nc3ccccc32)c1C gave a remaining activity of 89.5%.
COc1cc2nccc(Oc3ccc(NC(=S)NC(=O)c4ccccc4C)cc3)c2cc1OC has a remaining activity of 103%.
For CO[C@H]1C[C@@H]2CC[C@@H](C)[C@@](O)(O2)C(=O)C(=O)N2CCCC[C@H]2C(=O)O[C@H]([C@H](C)C[C@@H]2CC[C@@H](O)[C@H](OC)C2)CC(=O)[C@H](C)/C=C(\C)[C@@H](O)[C@@H](OC)C(=O)[C@H](C)C[C@H](C)/C=C/C=C/C=C/1C, the remaining activity was 89.5%.
For CC(C)[C@H](CO)Nc1nc(Nc2cc(N)cc(Cl)c2)c2ncn(C(C)C)c2n1, the remaining activity was 58.4%.
The remaining activity of Cn1c2ccccc2c2c3c(c4c5ccccc5n(CCC#N)c4c21)CNC3=O is reported as 96.3%.
COc1ccc(CNC(=O)Nc2ncc([N+](=O)[O-])s2)cc1 gave a remaining activity of 100%.
For O=S(=O)(c1cccc2cnccc12)N1CCCNCC1, the remaining activity was 107%.
O=C(O)c1ccc2c3c1cccc3c(=O)n1c3ccccc3nc21 gave a remaining activity of 90.6%.
OCC(O)CCON=C1C(c2c(O)[nH]c3ccccc23)=Nc2ccccc21 (stereo not shown) has a remaining activity of 72.2%.

Series 3 — effect on: cell-free assay; technique: competition with immobilised ligand; concentration: 0.1 µM
Compound: O=C(NCCCC1CCCCC1)c1ccc(CNC(=O)c2cnn(-c3ccccc3)c2C(F)(F)F)cc1
Aurora kinase B (AURKB, Homo sapiens, UniProt Q96GD4) — remaining binding: 95%.
PIK3CA (Homo sapiens, UniProt P42336, E545K) — remaining binding: 68%.
It gave 100% for remaining binding (BRSK1 (Homo sapiens, UniProt Q8TDC3)).
Insulin receptor (INSR, Homo sapiens, UniProt P06213) — remaining binding: 100%.
The remaining binding was 95% (PIK3CG (Homo sapiens, UniProt P48736)).
For HASPIN (Homo sapiens, UniProt Q8TF76): remaining binding read 100%.
For KIT (Homo sapiens, UniProt P10721, D816H): remaining binding read 78%.

Series 4 — SMILES: C=CCc1ccc(O)c(-c2ccc(O)c(CC=C)c2)c1; effect on: chloride current; technique: whole-cell patch clamp
Target: Anoctamin-1 (ANO1, Homo sapiens, UniProt Q5XXA6, del476-501)
UniProt Q5XXA6, sequence (whole entry, unmodified, looked up): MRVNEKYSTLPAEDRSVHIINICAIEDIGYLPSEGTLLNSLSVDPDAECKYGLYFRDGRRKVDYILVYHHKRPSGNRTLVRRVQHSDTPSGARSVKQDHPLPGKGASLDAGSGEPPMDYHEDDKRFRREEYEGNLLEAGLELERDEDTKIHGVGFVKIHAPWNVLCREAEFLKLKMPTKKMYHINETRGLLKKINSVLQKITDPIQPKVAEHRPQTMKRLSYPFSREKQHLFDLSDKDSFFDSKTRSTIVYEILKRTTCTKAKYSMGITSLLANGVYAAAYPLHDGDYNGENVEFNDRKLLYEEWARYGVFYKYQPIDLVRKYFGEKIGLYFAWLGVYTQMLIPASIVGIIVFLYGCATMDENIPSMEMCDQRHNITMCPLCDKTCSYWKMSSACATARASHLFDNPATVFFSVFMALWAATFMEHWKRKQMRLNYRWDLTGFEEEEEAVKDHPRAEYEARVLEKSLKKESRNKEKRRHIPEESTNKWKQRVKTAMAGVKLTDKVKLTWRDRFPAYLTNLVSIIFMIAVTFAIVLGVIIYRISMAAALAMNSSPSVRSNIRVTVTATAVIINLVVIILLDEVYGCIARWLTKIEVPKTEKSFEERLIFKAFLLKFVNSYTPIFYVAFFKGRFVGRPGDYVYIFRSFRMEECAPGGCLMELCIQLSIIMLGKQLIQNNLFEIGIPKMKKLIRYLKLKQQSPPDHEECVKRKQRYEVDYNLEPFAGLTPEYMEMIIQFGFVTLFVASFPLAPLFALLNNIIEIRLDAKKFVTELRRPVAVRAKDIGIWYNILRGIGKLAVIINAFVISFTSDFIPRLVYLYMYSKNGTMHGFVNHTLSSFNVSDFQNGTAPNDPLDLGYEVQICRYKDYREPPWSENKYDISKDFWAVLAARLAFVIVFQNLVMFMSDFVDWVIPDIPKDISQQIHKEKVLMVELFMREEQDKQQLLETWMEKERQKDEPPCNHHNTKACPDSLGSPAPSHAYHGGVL
For 3 µM, 60 mV, 300 nM free Ca2+: normalised current read 0.262 and 0.275.
For 1 µM, 40 mV, 300 nM free Ca2+, together with: honokiol and magnolol 10 µM: normalised current read 0.15.
3 µM, 20 mV, 300 nM free Ca2+ — normalised current: 0.0521 and 0.0547.
It gave 0.102 and 0.0971 for normalised current (1 µM, 20 mV, 300 nM free Ca2+).
For 3 µM, 40 mV, 300 nM free Ca2+: normalised current read 0.139 and 0.133.
1 µM, 80 mV, 300 nM free Ca2+ — normalised current: 0.649 and 0.681.
100 µM, 80 mV, 300 nM free Ca2+ — normalised current: 0.0584 and 0.0613.
